Measured values collected from several papers.
A part holds a random share of what one study measured. Changes are numbered by the printed parent chain.

Sample 1
Target: CCNB1, cyclin fold, Cln2 fusion (human)
Technique: yeast growth competition, sequencing
Sample: yeast
Setting: weak parent motif
Baseline: not given
Reading: higher = stronger binding
Starting sequence: WEE1 docking peptide (human); HKTFRKLRLFDTP
Substitution | normalised enrichment score
R8K | 0.0774
D11W | 0.298
T3G | 1.68
F4P | 0.15
F10K | 0.249
P13W | 0.503
R5V | -0.809
K2P | 0.236

Sample 2
Target: RING finger protein unkempt homolog, zinc fingers 1-6, GST-SBP tag (UNK, Homo sapiens, UniProt Q9C0B0, residues 30-357)
Sequence of UniProt Q9C0B0 (30-357, looked up): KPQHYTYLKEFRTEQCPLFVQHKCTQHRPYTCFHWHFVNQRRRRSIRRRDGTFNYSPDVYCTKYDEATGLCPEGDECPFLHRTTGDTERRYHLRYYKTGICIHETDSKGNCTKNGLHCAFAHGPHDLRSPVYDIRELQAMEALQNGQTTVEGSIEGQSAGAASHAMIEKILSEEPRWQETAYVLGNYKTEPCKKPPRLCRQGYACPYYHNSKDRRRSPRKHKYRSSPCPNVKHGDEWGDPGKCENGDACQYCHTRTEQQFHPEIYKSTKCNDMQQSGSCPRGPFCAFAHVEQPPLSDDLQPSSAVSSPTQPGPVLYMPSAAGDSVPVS
Technique: RNA Bind-n-Seq
Form: RNA
Sample: in vitro
Concentration: not given
Setting: RNA with constant flanks, human-mouse chimeric sites, ends assumed
Baseline: input RNA pool
Reading: higher = stronger binding
Shared flanks, not repeated: GGGAGUUCUACAGUCCGACGAUC … CAACAGAGGAUUGAGCAUCA
Oligonucleotide | bound/input enrichment [ratio]
UUACCCGAGAACGAGGAUGAGCUGGAGAGCACCAAUAGACGCUAUACCAAGAGGGACUGCAGCACUUUCCUCAGAACUAGUGAGACGGGCAUCGUGGACCAGGUCAUGGUCACUCUCAAC | 2.2
CACAGAGGAGACCUCCUGUUCCUCACGAAUUUCCGGGAGGACCCCAUCAGAGCUGGUGAAAUAGUUGUUUUUAAGGUUGAAGGACGAGACAUUCCGAUAGUUCACAGAGUAAUCAAGGUU | 3.3
UGUAGUUUCUUGAUUUAUCAUUUUUCUUGCUCGGGUUAGAUCGUCAGGAAAAGCCUAAAGAUUAGGUUGUAAGAAAAACAGAAGCCAUGUUUCGAAGACCUGUGUUACAGGUAUUUCGUC | 0.351
CCUCCCCGGGCCACCCAACCCCUCCCGGCUCCCCGCCGAGAUCCAGGUUUCUUCUUAUUUCAUAGCAAAUAAGAAAAAUGUUCUACGCACAUUUUGUCCUCAGUAAACGAGGGCCUCUGG | 0.395
GAAUCCUACUCAGGCGGAUUUUGCAACCUGAAUGCAACAGCAGCAGCAUCUUAGUCACAGUUAGGUAGUUUUGGGGCUCUGUGGCCAGGGUUUUAUUCACAUGCAGGUUUGGAAAAUGUA | 2.97
UCCCAAAUCCAGCAGCUCCUUGAAAUAUUGAGACAAACACUCCACACACAGGGAAGGCGAUAACAUUGUACAUUGGUUUACAUUUUUUCCCCCUGUGGAUUUUUCUAUCCUAGUGCUUGC | 0.302
GGAAGUACAAUGAUGGAGAUUGAUGGUGACAAAGGCAAGCAGGGCGGUCCCACCUACUACAUAGAUACCAAUGCCCUCCGCGUGCCCAGGGAGAACAUGGAGGCCAUCUCACCACUCAAG | 0.268
AAAGAGUGGAUAGAGUGUGCACACGGGAUCGGUGGGACCCGGGCGAAGAAAGAGUGCAAGAUAGAGUUCGAUGACUUCGAAGAGUGCUUGCUUCGGUAGAAAACGAUGAGGCGAAUGCAU | 0.461

Sample 3
Target: Prothrombin, mature alpha-thrombin (F2, Homo sapiens, UniProt P00734)
Technique: aptamer microarray, sandwich
Form: DNA with 2'F-ANA
Sample: in vitro
Concentration: 200 nM
Setting: whole 15-mer aptamer, many near background
Added: Cy3 exosite-II aptamer, 400 nM
Reading: higher = stronger binding
Oligonucleotide: GGTTGGTGTGGTTGG
Modification | mean fluorescence intensity [a.u.]
2'F-ANA at 3 4 6 10 11 12 13 14 | 166
2'F-ANA at 2 4 5 8 11 12 | 119
2'F-ANA at 1 4 6 7 8 11 13 14 15 | 59.3
2'F-ANA at 2 6 7 8 9 12 13 15 | 508
2'F-ANA at 2 3 6 8 10 11 14 | 231
2'F-ANA at 2 12 13 14 | 189
2'F-ANA at 1 2 3 4 7 8 10 11 14 15 | 52.7
2'F-ANA at 1 2 3 4 8 11 12 | 314

Mixed results
SMILES | target | observed | action | concentration | baseline | quantity | value
COc1cc2ncnc(Nc3ccc(O)c(Br)c3)c2cc1OC | Mitogen-activated protein kinase 1 (MAPK1, Homo sapiens, UniProt P28482) | enzyme activity | inhibitor | 0.5 µM | control | remaining activity | 102%

Repeated from above (sample 1):
Substitution | normalised enrichment score
F4P | 0.15
F10K | 0.249
